Results from different studies.
Each line is one published result; not all experiments were run side by side. Several values in a cell are separate wells, animals, samples, runs or records. ± gives the spread as reported.

Chains of the proteins cited; added tags and fusions are not shown. Residues count along the entry.
UniProt P49582, 23-502 limits assumed: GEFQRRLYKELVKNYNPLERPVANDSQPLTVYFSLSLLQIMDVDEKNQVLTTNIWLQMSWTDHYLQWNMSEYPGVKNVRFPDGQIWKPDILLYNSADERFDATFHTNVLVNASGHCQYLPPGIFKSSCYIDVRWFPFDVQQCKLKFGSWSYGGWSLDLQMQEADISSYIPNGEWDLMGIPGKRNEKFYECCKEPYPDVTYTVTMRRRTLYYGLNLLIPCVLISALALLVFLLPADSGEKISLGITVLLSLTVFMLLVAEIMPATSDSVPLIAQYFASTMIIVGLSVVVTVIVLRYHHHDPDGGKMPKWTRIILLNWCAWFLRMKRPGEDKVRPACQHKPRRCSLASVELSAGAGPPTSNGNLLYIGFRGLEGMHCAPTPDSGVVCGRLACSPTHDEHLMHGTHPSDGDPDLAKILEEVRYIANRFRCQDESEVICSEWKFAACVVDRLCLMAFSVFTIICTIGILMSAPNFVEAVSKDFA

Substance	tested on	assay	system	conditions	how to read	quantity	value
C=CCN1CC[C@]23c4c5ccc(O)c4O[C@H]2C(=O)CC[C@@]3(O)[C@H]1C5			rat, fentanyl overdose model	s.c., 0.2 mg/kg, 10.5 (unit not given), repeated doses as rescue		survival time	12 h and 48 h and 15 h
C[C@H](NP(=O)(Nc1ccn([C@H]2CS[C@@H](COP(=O)(N[C@@H](C)C(=O)OCc3ccccc3)N[C@@H](C)C(=O)OCc3ccccc3)O2)c(=O)n1)N[C@@H](C)C(=O)OCc1ccccc1)C(=O)OCc1ccccc1	L1210	cell proliferation		2 d		IC50	> 250 µM
Pillar[6]MaxQ		host-guest binding, isothermal titration calorimetry	20 mM sodium phosphate buffer	pH 7.4, with: MDMA		Kd	0.0255 µM
N=C(N)NCCNC(=O)C1(Nc2ccccc2)CCN(Cc2ccccc2)CC1		warm-water tail withdrawal	mouse	intracerebroventricular, 30 nmol		tail-withdrawal latency	no effect
CN1CC[C@]23c4c5ccc(O)c4O[C@H]2[C@@H](O)C=C[C@H]3[C@H]1C5		body temperature decrease	C57BL/6J male mice	subcutaneous		ED50	12.4 mg/kg
CCC1C(=O)N(C2CCN([C@H]3CC[C@@H]4CCCc5cccc3c54)CC2)c2ccccc21 (relative stereo)		tail-flick test	mouse	subcutaneous, 3 mg/kg, with: naloxone 1 mg/kg pretreatment 10 min		antinociception	inhibited
NC12CC3CC(CC(C3)C1)C2	Influenza A virus	viral replication	MDCK, A/Swine/Iowa/11-0918/2010			EC50	< 1 µM
O/N=C/c1cc[n+](COC[n+]2ccc(/C=N/O)cc2)cc1.[Cl-].[Cl-]		reactivator, up-and-down method	mice		relative to: NIMP LD50 untreated	protective ratio	2.85 fold NIMP LD50
cisplatin		survival	zebrafish larvae 6 dpf	4 h, DMSO solution, with: KCN 100 µM		EC100	125 µM
C[C@H](NP(=O)(Nc1ccn([C@H]2CS[C@@H](CO)O2)c(=O)n1)N[C@@H](C)C(=O)OCc1ccccc1)C(=O)OCc1ccccc1	L1210	cell proliferation		2 d		IC50	≥ 250 µM
CC1(C)C(C(Cl)Cl)C2(Cl)C(Cl)C(Cl)C1(Cl)C2(Cl)Cl (stereo not shown)		indirect competitive ELISA	rabbit antiserum	cross-reactivity		IC50	> 1 µg/mL
O=C(N[C@H]1CC[C@@]2(O)[C@H]3Cc4ccc(O)c5c4[C@@]2(CCN3CC2CC2)[C@H]1O5)c1cccc2cc[nH]c12		drug discrimination substitution	rat	subcutaneous, 32 mg/kg, 30 min pretreatment, trained fentanyl 0.04 mg/kg vs saline		maximum fentanyl-appropriate responding	1.7 ± 1.5%
NC(=O)c1cc[n+](COC[n+]2ccccc2/C=N/O)cc1.[Cl-].[Cl-]		reactivator, up-and-down method	mice		relative to: NIMP LD50 untreated	protective ratio	2.63 fold NIMP LD50
O=S1(=O)c2ccc(F)cc2-c2ccc(N3CCN4CCC3CC4)cc21 [fluorine-18 labelled]	Neuronal acetylcholine receptor subunit alpha-7 (Chrna7, Mus musculus, UniProt P49582)		CD-1 mouse, hippocampus and colliculus	dose not given, 90 min, self-blockade	relative to: blocked cerebellum	specific binding	80%
AEOL 10150		multiplex immunoassay	rat, status epilepticus, piriform cortex	sc, 7 mg/kg every 4 h, 24 h, from 5 min post-SE		TNF-α increase	decreased
CCCSc1nc(N[C@@H]2C[C@H]2c2ccc(F)c(F)c2)c2nnn([C@@H]3C[C@H](OCCO)[C@@H](O)[C@H]3O)c2n1			STEMI patients, plasma	180 mg loading dose, 6 h, with: fentanyl		plasma concentration	551 ± 507 ng/mL
